Measured values of several laboratories.
Several values in a cell are separate wells, animals, samples, runs or records. ± gives the spread as reported.
ALB: Albumin (ALB, Homo sapiens, UniProt P02768)
uncharacterized protein: uncharacterized protein (Spodoptera exigua, UniProt F1CEY0)

| SMILES | tested on | assay | system | conditions | scale | quantity | value |
| --- | --- | --- | --- | --- | --- | --- | --- |
| C=CCO[C@H]1CCN2C(=O)[C@@H](NC(=O)[C@H](CCCNC(=N)N)NC(=O)[C@H](CCCNC(=N)N)NC(C)=O)CSSC[C@@H](C(=O)N[C@@H](CCCNC(=N)N)C(=O)N[C@@H](CCCNC(=N)N)C(N)=O)NC(=O)[C@H](C(C)C)NC(=O)[C@@H]3CCCN3C(=O)[C@H](CC(=O)O)NC(=O)[C@H](Cc3ccc(O)cc3)NC(=O)[C@H](CO)NC(=O)[C@H]([C@@H](C)CC)NC(=O)[C@H](Cc3ccc(-c4ccccc4)cc3)NC(=O)[C@H](CC(C)C)NC(=O)[C@H]12 | GTPase KRas, GDP-bound (KRAS, Homo sapiens, UniProt P01116, G12D) | affinity selection mass spectrometry | – | mixture library 3, together with: protein titration up to 2.5 µM | lower is stronger binding | lowest bound protein concentration | 0.04 µM |
| O=c1nc(SCc2cc(F)cc(C(F)(F)F)c2)nc(SCc2csc3ccc(Cl)cc23)[nH]1 | TOP2A (Homo sapiens, UniProt P11388) | decatenation | – | 7.8 µM | – | mean decatenated DNA | 93.2% |
| Nc1ncnc2c1ncn2[C@@H]1O[C@H](COP(=O)(O)OP(=O)(O)OP(=O)(O)O)[C@@H](O)[C@H]1O | P2X purinoceptor 7 (P2rx7, Rattus norvegicus, UniProt Q64663, I214A/Q143A/R125A) | ion current, agonist, two-electrode voltage clamp | Xenopus oocytes | 900 µM | – | normalized current | 0.878 and 0.862 and 0.885 |
| C=CC(=O)N1CCC(COCC(=O)N2CCN(c3nc(-c4cnc(N)nc4C(F)F)nc(N4CCOC[C@@H]4C)n3)CC2)CC1 | ANKK1 (Homo sapiens, UniProt Q8NFD2) | KINOMEscan | – | 1 µM | – | remaining binding | 95% |
| OC[C@H]1O[C@@H](Oc2cc3c(O)cc(O)cc3[o+]c2-c2ccc(O)c(O)c2)[C@H](O)[C@@H](O)[C@@H]1O | ALB | binding, fluorescence quenching | – | 20 °C | – | Gibbs free energy | -6.28 kcal/mol |
| Nc1ncnc2c1ncn2[C@@H]1O[C@H](COP(=O)(O)OP(=O)(O)O)[C@@H](O)[C@H]1O | GUK1 (Homo sapiens, UniProt Q16774, R137A) | binding, ITC | – | – | – | ΔG | -5.33 kcal/mol |
| Cn1cc(-c2ccc(-c3cncc(Cl)c3N3CCC4(CCNC4=O)CC3)cc2)cn1 | COLO 205 | microarray, measured: SDC4 | – | concentration not given, 2 h, gene set Syndecan-4 | relative to: untreated cells | fold change in expression | 2.76 |
| CC(=O)N[C@H]1C(O)O[C@H](CO)[C@@H](O)[C@@H]1O[C@H](C)C(=O)N[C@@H](C)C(=O)N[C@H](CCC(=O)O)C(=O)O (stereo partly shown) | NOD1 (Homo sapiens, UniProt Q9Y239) | reporter gene, agonist | HEK-Blue mNOD1 reporter cells | 200 nM, 18 h | relative to: untreated | SEAP fold change | 0.967 and 1.03 and 1.07 |
| CC[C@H](C)[C@@H]1NC(=O)[C@H]([C@@H](C)O)NC(=O)[C@@H]2CCCN2C(=O)[C@@H](NC(=O)CN)CSSC[C@@H]2NC(=O)CNC(=O)[C@H](C)NC(=O)[C@H](CC(C)C)NC(=O)[C@@H]3CSSC[C@@H](C(=O)NCC(=O)O)NC(=O)[C@H](Cc4ccccc4)NC(=O)CNC(=O)[C@H](CC(N)=O)NC(=O)[C@@H]4CCCN4C(=O)CNC(=O)[C@H](CSSC[C@H](NC(=O)[C@H](CCCNC(=N)N)NC(=O)[C@H](CCC(N)=O)NC(=O)[C@H](CCCNC(=N)N)NC(=O)[C@H](CCCCN)NC(=O)[C@H](C(C)C)NC(=O)[C@H]([C@@H](C)O)NC(=O)[C@H](CC(N)=O)NC1=O)C(=O)N[C@@H](CCCCN)C(=O)N[C@@H](CCC(N)=O)C(=O)N[C@@H](CC(=O)O)C(=O)N[C@@H](CO)C(=O)N[C@@H](CC(=O)O)C(=O)N3)NC(=O)[C@H](C(C)C)NC2=O | Low-density lipoprotein receptor-related protein 6, E1 domain (LRP6, Homo sapiens, UniProt O75581) | binding, SPR | – | pH 7.5 | – | kon | 1.35e+06 ± 180000 M⁻¹ s⁻¹ |
| CCCC[C@H]1C(=O)N(C)[C@@H](CCCC)C(=O)N[C@@H](CCCCNC(=O)CN2CCN(CC(=O)O)CCN(CC(=O)O)CC2)C(=O)N[C@H](C(=O)NCC(N)=O)CSCC(=O)N[C@@H](Cc2ccc(O)cc2)C(=O)N(C)[C@@H](C)C(=O)N[C@@H](CC(N)=O)C(=O)N2CCC[C@H]2C(=O)N[C@@H](Cc2c[nH]cn2)C(=O)N[C@@H](CCC(=O)O)C(=O)N2C[C@H](O)C[C@H]2C(=O)N[C@@H](Cc2c[nH]c3ccccc23)C(=O)N[C@@H](CO)C(=O)N[C@@H](Cc2cn(CC(=O)O)c3ccccc23)C(=O)N1C [gallium-68 labelled] | CD274 (Homo sapiens, UniProt Q9NZQ7) | PET/CT | human, primary tumour | – | – | SUVmax | 5 |
| CSCC[C@H](N)C(=O)Nc1ccc2ccccc2c1 | Puromycin-sensitive aminopeptidase (Rattus norvegicus, UniProt F1M9V7) | substrate | – | MW 100 kDa | – | kcat | 33.8 s⁻¹ |
| NC/C(=C\F)COc1cccc(Cn2c(=S)[nH]c(=O)c3[nH]cnc32)c1 | AOC3 (Homo sapiens, UniProt Q16853) | H2O2 production, Amplex Red | – | 0.1111 µM, recombinant human enzyme | – | inhibition | 98.6% and 99.6% |
| CCN1CCC[C@H]1CNC(=O)c1c(O)c(Cl)cc(Cl)c1OC | 12-(S)-hydroxy-5,8,10,14-eicosatetraenoic acid receptor (GPR31, Homo sapiens, UniProt O00270) | β-arrestin recruitment, TANGO luminescence, measured: GPR31 | – | concentration not given | relative to: basal luminescence | log2 fold change | -0.209 |
| N[C@H](CNC(=O)c1ccc(-c2cccc3ccccc23)s1)C(=O)O | Glutamate receptor ionotropic, NMDA 1, with GluN2A (Grin1, Rattus norvegicus, UniProt P35439) | – | – | together with: glutamate 300 µM | – | Hill slope | 1.36 |
| C#Cc1c(F)ccc2cc(O)cc(-c3ncc4c(N5CC6CCC(C5)N6)nc(OC[C@@]56CCCN5C[C@H](F)C6)nc4c3F)c12 | GTPase KRas, GppNHp-bound (KRAS, Homo sapiens, UniProt P01116, Q61R) | – | – | – | relative to: Q61R-GppNHp | affinity loss | 5 to 10 fold |
| O=C(COP(=O)(O)O)[C@@H](O)[C@H](O)[C@H](O)COP(=O)(O)O | Fructose-1,6-bisphosphatase 1 (Mus musculus, UniProt Q9QXD6) | thermal shift | – | 0.1 mM, wild type, together with: AMP 0.2 mM | – | melting temperature | 70.3 ± 0.6 °C |
| COc1cc(Nc2ncc3c(n2)-c2ccc(Cl)cc2C(c2c(F)cccc2OC)=NC3)ccc1C(=O)O | ADRBK1 | kinase activity | – | 1 µM | – | remaining activity | 102% |
| N[C@H](CNC(=O)c1cc(Br)c(-c2ccccc2F)s1)C(=O)O | Glutamate receptor ionotropic, NMDA 1, with GluN2C (Grin1, Rattus norvegicus, UniProt P35439, S688A) | receptor activation | rat | together with: glutamate 300 µM | – | log EC50 | -2.4 µM |
| CN1CCN(c2cc(-c3ccncc3)c(-c3ccc4ccccc4c3)nn2)CC1 | AGTR1 (Homo sapiens, UniProt P30556) | agonist, FLIPR | – | 12.5 µM | – | activation | -0.8% |

| SMILES | tested on | assay | system | conditions | scale | quantity | value |
| --- | --- | --- | --- | --- | --- | --- | --- |
| CCCCC(C)=O | uncharacterized protein | binding, competitor, fluorescence displacement | – | 20 µM, pH 7.4, together with: 1-NPN 20 µM | relative to: 1-NPN alone | relative fluorescence | 78.9% |
| Cc1c(-c2ccc(-c3ccccc3F)cc2)nc2ccc(F)cc2c1C(=O)O | DHODH (Homo sapiens, UniProt Q02127) | enzyme activity, inhibitor, DCIP reduction | – | 0.005 µM | higher = more activity | reaction rate | -21.9 a.u. |
| O=S(=O)(O)C1CCNCC1 | SLC6A6 (Homo sapiens, UniProt P31641, G62A) | binding, microscale thermophoresis | – | 3.91 µM, room temperature, together with: 50 nM labelled protein | higher = more binding | normalised MST signal | 0.00696 |
| N[C@H](CNC(=O)c1ccc(-c2ccccc2Br)s1)C(=O)O | Glutamate receptor ionotropic, NMDA 1, with GluN2C (Grin1, Rattus norvegicus, UniProt P35439) | – | – | together with: glutamate 300 µM | – | Hill slope | 1.35 |
| COc1ccc(F)cc1C(=O)NCc1ccc(-c2nn([C@@H](C)C(F)(F)F)c(N)c2C(N)=O)cc1 | BTK (Homo sapiens, UniProt Q06187) | competitive chemoproteomics | live PBMCs | 0.1 µM | – | probe binding reduction | 90% |
| Cc1occc(=O)c1[O-].[Cl-].[W+4].c1cc[cH-]c1.c1cc[cH-]c1 | ALB | fluorescence quenching | – | 317 K | – | Stern-Volmer quenching constant | 16600 L/mol |
| CC12CCC(CC1=O)C2(C)C (stereo not shown) | uncharacterized protein | binding, competitor, fluorescence displacement | – | 20 µM, pH 7.4, together with: 1-NPN 20 µM | relative to: 1-NPN alone | relative fluorescence | 72.8% |
| N#Cc1ccn2c(-c3ccncc3)c(-c3ccc(F)cc3)nc2c1 | Carbon catabolite-derepressing protein kinase (SNF1, Candida albicans, UniProt P52497) | kinase binding, competitor, MIB/MS competition, measured: SNF1 | Candida albicans cell lysate | 100 nM | relative to: DMSO | log2 fold change | -0.164 |
| Nc1nc2c(ncn2[C@@H]2O[C@H](COP(=O)(O)O)[C@@H](O)[C@H]2O)c(=O)[nH]1 | GUK1 (Homo sapiens, UniProt Q16774, S37P) | enzyme activity, NADH-coupled | – | 7.812 µM | – | reaction rate | 0.135 s⁻¹ and 0.726 s⁻¹ and 0.311 s⁻¹ |
| COc1cccc(C(=O)Nc2nc3ccccc3[nH]2)c1 | ADORA2A (Homo sapiens, UniProt P29274) | binding, radioligand competition | – | 10 µM, together with: [3H]ZM241385 | – | displacement | 10 ± 4% |
| CCC1(O)CCCN(C(=O)c2ccc(-c3ccc(F)c(NC(=O)CCl)c3)cc2)C1 (stereo not shown) | DNA dC->dU-editing enzyme APOBEC-3B, C-terminal domain (Homo sapiens, UniProt Q9UH17) | covalent modifier, intact protein mass spectrometry, measured: adduct +25721 Da | – | 500 µM, 1 h, 20-fold molar excess | – | protein adduct | 80% |
| COc1cc(-c2[o+]c3cc(O)cc(O)c3cc2O[C@@H]2O[C@H](CO)[C@@H](O)[C@H](O)[C@H]2O)cc(O)c1O | ALB | van't Hoff analysis | – | concentration not given | – | binding enthalpy change | -7.69 kcal/mol |
| Nc1ncnc2c1ncn2[C@@H]1O[C@H](COP(=O)(O)OP(=O)(O)OP(=O)(O)O)[C@@H](O)[C@H]1O | Hexokinase-3 (HK3, Homo sapiens, UniProt P52790, R807A) | substrate | – | mutant R807A, together with: glucose 0.5 mM | – | kcat | 71 ± 7 s⁻¹ |
| c1ccc(C(NCc2cccnc2)(c2ccccc2)c2ccccc2)cc1 | KCNQ1 (Homo sapiens, UniProt P51787) | whole-cell patch clamp | – | 300 pM | – | activation time constant | 17 ± 3 ms |
| CCCCCCCC=O | uncharacterized protein | binding, competitor, fluorescence displacement | – | 20 µM, pH 7.4, together with: 1-NPN 20 µM | relative to: 1-NPN alone | relative fluorescence | 67.6% |
| CCS(=O)(=O)N1CC(CC#N)(n2cc(-c3ncnc4[nH]ccc34)cn2)C1 | ORM1 (Homo sapiens, UniProt P02763) | circular dichroism | – | 298 K | – | antiparallel β-sheet content | 43.9% |
| CC1=C[C@H](O)[C@H]2C[C@@H]1C2(C)C | uncharacterized protein | binding, 1-NPN competitive displacement | – | protein 2.0 µM, together with: 1-NPN 20 µM | relative to: 1-NPN without compound, lower = stronger binding | relative fluorescence | 79.2% |
| COCCC(=O)N1CCC(Oc2ccccc2)C1 (stereo not shown) | DNA mismatch repair protein Msh6 (Homo sapiens, UniProt P52701) | binding, affinity selection mass spectrometry | – | – | relative to: other proteins in batch | fold enrichment | 1.47 |

A few entries again:
| SMILES | tested on | assay | system | conditions | scale | quantity | value |
| --- | --- | --- | --- | --- | --- | --- | --- |
| CCCCC(C)=O | uncharacterized protein | binding, competitor, fluorescence displacement | – | 20 µM, pH 7.4, together with: 1-NPN 20 µM | relative to: 1-NPN alone | relative fluorescence | 78.9% |
| Cc1c(-c2ccc(-c3ccccc3F)cc2)nc2ccc(F)cc2c1C(=O)O | DHODH (Homo sapiens, UniProt Q02127) | enzyme activity, inhibitor, DCIP reduction | – | 0.005 µM | higher = more activity | reaction rate | -21.9 a.u. |
| O=S(=O)(O)C1CCNCC1 | SLC6A6 (Homo sapiens, UniProt P31641, G62A) | binding, microscale thermophoresis | – | 3.91 µM, room temperature, together with: 50 nM labelled protein | higher = more binding | normalised MST signal | 0.00696 |
| N[C@H](CNC(=O)c1ccc(-c2ccccc2Br)s1)C(=O)O | Glutamate receptor ionotropic, NMDA 1, with GluN2C (Grin1, Rattus norvegicus, UniProt P35439) | – | – | together with: glutamate 300 µM | – | Hill slope | 1.35 |
| COc1ccc(F)cc1C(=O)NCc1ccc(-c2nn([C@@H](C)C(F)(F)F)c(N)c2C(N)=O)cc1 | BTK (Homo sapiens, UniProt Q06187) | competitive chemoproteomics | live PBMCs | 0.1 µM | – | probe binding reduction | 90% |
| Cc1occc(=O)c1[O-].[Cl-].[W+4].c1cc[cH-]c1.c1cc[cH-]c1 | ALB | fluorescence quenching | – | 317 K | – | Stern-Volmer quenching constant | 16600 L/mol |
